Measured values gathered from unrelated publications.
Numbered parts are unrelated; each lists some results of a single study. Changes are numbered by the printed parent chain.
Sequence of UniProt Q9C5X0 (whole entry, looked up): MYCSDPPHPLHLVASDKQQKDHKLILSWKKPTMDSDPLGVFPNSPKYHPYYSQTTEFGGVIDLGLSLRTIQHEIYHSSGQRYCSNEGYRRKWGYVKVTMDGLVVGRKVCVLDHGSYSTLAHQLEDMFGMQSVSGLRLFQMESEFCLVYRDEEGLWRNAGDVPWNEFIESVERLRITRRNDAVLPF
Sequence of UniProt Q9ZPY6 (whole entry, looked up): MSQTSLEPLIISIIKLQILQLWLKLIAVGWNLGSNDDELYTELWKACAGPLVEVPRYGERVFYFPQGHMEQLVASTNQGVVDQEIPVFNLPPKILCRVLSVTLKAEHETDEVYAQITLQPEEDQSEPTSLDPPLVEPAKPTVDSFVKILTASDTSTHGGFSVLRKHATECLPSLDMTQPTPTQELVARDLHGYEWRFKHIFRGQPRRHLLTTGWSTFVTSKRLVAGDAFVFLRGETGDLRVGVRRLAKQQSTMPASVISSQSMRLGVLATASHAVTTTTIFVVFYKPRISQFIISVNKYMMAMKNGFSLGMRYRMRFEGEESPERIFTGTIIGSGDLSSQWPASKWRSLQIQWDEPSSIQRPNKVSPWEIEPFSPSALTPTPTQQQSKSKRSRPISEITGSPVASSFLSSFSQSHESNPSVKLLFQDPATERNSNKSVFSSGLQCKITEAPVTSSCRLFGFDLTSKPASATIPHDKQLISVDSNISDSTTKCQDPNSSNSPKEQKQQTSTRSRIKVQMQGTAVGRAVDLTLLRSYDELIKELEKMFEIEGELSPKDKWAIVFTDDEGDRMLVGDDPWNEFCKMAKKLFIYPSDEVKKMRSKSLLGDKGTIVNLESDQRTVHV
Sequence of UniProt Q84WU6 (whole entry, looked up): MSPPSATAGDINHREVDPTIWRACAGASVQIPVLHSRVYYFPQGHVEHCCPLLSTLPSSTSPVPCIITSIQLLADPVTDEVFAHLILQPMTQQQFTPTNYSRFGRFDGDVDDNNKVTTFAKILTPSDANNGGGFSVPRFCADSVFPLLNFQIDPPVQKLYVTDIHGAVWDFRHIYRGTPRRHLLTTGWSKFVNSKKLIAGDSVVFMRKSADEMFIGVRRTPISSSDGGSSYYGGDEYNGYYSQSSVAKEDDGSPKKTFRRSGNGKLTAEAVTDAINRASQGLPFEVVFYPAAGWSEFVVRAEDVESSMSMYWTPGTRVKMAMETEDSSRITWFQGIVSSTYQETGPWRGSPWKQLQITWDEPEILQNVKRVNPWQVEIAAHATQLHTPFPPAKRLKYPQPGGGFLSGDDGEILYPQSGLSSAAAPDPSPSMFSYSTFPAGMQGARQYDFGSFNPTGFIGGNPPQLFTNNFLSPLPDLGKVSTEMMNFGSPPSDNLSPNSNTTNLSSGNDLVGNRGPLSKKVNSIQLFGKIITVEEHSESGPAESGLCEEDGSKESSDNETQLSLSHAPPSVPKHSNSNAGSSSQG
Sequence of UniProt Q8L7G0 (whole entry, looked up): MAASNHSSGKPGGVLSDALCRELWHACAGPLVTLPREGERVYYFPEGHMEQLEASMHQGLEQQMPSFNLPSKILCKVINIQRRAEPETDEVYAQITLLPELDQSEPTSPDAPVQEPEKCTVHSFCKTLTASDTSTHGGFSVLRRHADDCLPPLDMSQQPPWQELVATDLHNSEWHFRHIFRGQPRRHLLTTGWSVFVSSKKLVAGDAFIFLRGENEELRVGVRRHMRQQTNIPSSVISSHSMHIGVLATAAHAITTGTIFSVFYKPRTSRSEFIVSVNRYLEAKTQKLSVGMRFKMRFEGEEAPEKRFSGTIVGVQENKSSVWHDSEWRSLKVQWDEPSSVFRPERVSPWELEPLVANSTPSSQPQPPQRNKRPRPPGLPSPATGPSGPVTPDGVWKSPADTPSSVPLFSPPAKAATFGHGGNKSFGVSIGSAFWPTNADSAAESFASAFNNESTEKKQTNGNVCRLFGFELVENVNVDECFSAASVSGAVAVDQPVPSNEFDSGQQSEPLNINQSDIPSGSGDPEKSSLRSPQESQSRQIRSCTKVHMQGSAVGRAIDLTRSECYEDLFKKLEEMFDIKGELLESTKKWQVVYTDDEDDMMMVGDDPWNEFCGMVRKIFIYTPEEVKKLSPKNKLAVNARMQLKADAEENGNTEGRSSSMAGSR
Sequence of UniProt Q9C8N7 (whole entry, looked up): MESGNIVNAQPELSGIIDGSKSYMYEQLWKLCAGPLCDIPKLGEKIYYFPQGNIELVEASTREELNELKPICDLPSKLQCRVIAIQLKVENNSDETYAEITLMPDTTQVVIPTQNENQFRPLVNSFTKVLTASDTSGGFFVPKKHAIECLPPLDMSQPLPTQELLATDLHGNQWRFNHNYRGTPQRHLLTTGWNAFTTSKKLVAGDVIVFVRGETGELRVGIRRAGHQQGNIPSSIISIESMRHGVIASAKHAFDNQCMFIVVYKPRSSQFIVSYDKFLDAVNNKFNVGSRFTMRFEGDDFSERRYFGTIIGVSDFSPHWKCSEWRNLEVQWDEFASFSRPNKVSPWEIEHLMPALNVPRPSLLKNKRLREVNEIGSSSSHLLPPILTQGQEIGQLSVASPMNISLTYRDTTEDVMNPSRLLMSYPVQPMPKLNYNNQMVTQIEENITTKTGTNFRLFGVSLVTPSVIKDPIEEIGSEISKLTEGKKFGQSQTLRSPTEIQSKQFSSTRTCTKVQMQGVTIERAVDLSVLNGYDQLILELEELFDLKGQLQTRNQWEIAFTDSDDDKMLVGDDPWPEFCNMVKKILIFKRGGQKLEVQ
Sequence of UniProt Q8LAL2 (whole entry, looked up): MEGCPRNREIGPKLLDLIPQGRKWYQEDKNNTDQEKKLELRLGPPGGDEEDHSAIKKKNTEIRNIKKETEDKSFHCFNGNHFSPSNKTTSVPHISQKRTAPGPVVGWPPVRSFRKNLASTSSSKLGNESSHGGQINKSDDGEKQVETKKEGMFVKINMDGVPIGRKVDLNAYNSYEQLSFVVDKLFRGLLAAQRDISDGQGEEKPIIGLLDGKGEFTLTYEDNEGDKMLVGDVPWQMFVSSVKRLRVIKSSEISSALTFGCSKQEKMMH

Study 1
Molecule: B1 (IAA20)
Method: two-hybrid
Setting: weak activation fusion
Direction: higher = firmer interaction
B1: IAA20 (Arabidopsis thaliana, UniProt O24410); chain MGRGRSSSSSSIESSSKSNPFGASSSTRNLSTDLRLGLSFGTSSGTQYFNGGYGYSVAAPAVEDAEYVAAVEEEEENECNSVGSFYVKVNMEGVPIGRKIDLMSLNGYRDLIRTLDFMFNASILWAEEEDMCNEKSHVLTYADKEGDWMMVGDVPWEMFLSTVRRLKISRANYHY
| partner | how to read | positive tests |
| --- | --- | --- |
| ARF22 498-598 (Arabidopsis thaliana, UniProt Q9C8N7) | reference: out of 4 tests | 2 |
| ARF17 (Arabidopsis thaliana, UniProt Q84WU6) | reference: out of 2 tests | 0 |
| IAA34 (Arabidopsis thaliana, UniProt Q9C5X0) | reference: out of 4 tests | 2 |
| ARF1 538-665 (Arabidopsis thaliana, UniProt Q8L7G0) | reference: out of 4 tests | 1 |
| ARF11 500-622 (Arabidopsis thaliana, UniProt Q9ZPY6) | reference: out of 4 tests | 0 |
| IAA26 (Arabidopsis thaliana, UniProt Q8LAL2) | reference: out of 2 tests | 1 |

Study 2
Target: BATF2, bZIP domain (human)
Method: DHFR protein complementation
Medium: yeast
Setting: single substitutions, most at no-binding floor
Reference: wild-type JUN-FOS pair
Direction: higher = stronger binding
Starting sequence: JUN, bZIP domain (human); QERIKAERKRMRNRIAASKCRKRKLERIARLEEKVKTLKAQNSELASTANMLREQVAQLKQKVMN; partner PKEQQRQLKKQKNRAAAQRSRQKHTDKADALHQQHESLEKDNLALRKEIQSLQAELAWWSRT
| Variant | binding fitness [natural log] |
| --- | --- |
| N42G | -1.29 |
| T37C | -0.187 |
| K36A | -0.132 |
| L45N | -1.48 |
| L52P | -1.5 |
| R53D | -1.32 |
| A29Q | -0.337 |
| A49Y | -0.94 |
| V56A | -1.12 |
| A57N | -0.271 |
| M51G | -0.383 |
| L31Y | -0.855 |
| Q55W | -1.01 |
| R30W | -0.223 |
| K34L | -0.325 |
| I28W | -0.621 |
| L31M | -0.32 |
| A57Q | -0.361 |
| A57E | -0.188 |
| A46G | -0.765 |
| Q55I | -0.92 |
| S47E | -0.0859 |
| T48N | -0.678 |
| E44Y | -0.665 |
| V56F | -1.33 |

Study 3
Target: CCNB1, cyclin fold, Cln2 fusion (human)
Method: yeast growth competition, sequencing
Medium: yeast
Setting: strong parent motif
Reference: not given
Direction: higher = stronger binding
Starting sequence: CCP110 docking peptide (human); EKVKRRLDLDIDG
| Variant | normalised enrichment score |
| --- | --- |
| D8A | 0.415 |
| R5A | 0.342 |
| R5A L7A | 0.152 |
| R5K L9F | 5.15 |
| K4A | 1.88 |
| D12A | 0.482 |
| D10A | 1.61 |
| R5K | 1.11 |
| V3A | 0.179 |
| I11A | 1.54 |

Study 4
Target: ABI1, truncated, D143A, DHFR fusion (Arabidopsis thaliana, UniProt P49597)
Method: DHFR PCA, dose-response
Medium: yeast
Setting: Hill fit, mean, not affinity
With: (+)-ABA, dose series
Direction: lower = more sensitive
Starting sequence: PYL1, truncated, DHFR fusion (Arabidopsis thaliana, UniProt Q8VZS8); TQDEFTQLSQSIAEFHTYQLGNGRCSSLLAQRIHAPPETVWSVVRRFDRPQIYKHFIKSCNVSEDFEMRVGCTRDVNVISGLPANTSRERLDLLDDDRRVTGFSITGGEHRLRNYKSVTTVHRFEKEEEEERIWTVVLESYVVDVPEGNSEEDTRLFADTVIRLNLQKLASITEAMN
| Variant | ABA EC50 |
| --- | --- |
| L164G | 22.7 µM |
| F15W | 2.65 µM |
| E127N | 2.2 µM |
| E109G | 14.3 µM |
| L94A | 286 µM |
| E131F | 5.14 µM |
| M68I | 2.97 µM |
| V44L | 2.8 µM |
| E174P | 69.3 µM |
| D153N | 63.3 µM |
| L8V | 9.93 µM |
| Q31T | 23.9 µM |
| D75K | 1.84 µM |
| I12R | 57.7 µM |
| E151Y | 5.67 µM |
| G107A | 21.2 µM |
| D65G | 2.53 µM |
| E14I | 11.6 µM |
| N61Q | 2.83 µM |
| E174M | 12.2 µM |

Study 5
Target: Prothrombin, mature alpha-thrombin (F2, Homo sapiens, UniProt P00734)
Method: aptamer microarray, sandwich
Molecule type: DNA with 2'F-ANA
Medium: in vitro
Concentration: 200 nM
Setting: whole 15-mer aptamer, many near background
With: Cy3 exosite-II aptamer, 400 nM
Direction: higher = stronger binding
Sequence: GGTTGGTGTGGTTGG
| Modification | mean fluorescence intensity |
| --- | --- |
| 2'F-ANA at 3 5 7 15 | 135 a.u. |
| 2'F-ANA at 2 5 6 7 8 11 15 | 66.4 a.u. |
| 2'F-ANA at 3 4 5 7 8 9 12 13 14 15 | 52.8 a.u. |
| 2'F-ANA at 3 4 5 6 11 13 | 64.6 a.u. |
| 2'F-ANA at 1 5 7 12 13 14 15 | 45.3 a.u. |
| 2'F-ANA at 5 12 | 207 a.u. |
| 2'F-ANA at 4 5 7 8 15 | 78.6 a.u. |
| 2'F-ANA at 1 2 3 6 8 10 13 14 | 49.6 a.u. |
| 2'F-ANA at 1 2 5 7 8 9 11 12 13 | 71.7 a.u. |
| 2'F-ANA at 6 8 11 13 | 391 a.u. |
| 2'F-ANA at 4 8 9 12 13 15 | 372 a.u. |
| 2'F-ANA at 1 2 3 4 5 7 12 14 | 44 a.u. |
| 2'F-ANA at 5 6 7 10 11 13 14 15 | 45.9 a.u. |
| 2'F-ANA at 1 3 13 14 15 | 85.8 a.u. |
| 2'F-ANA at 7 8 12 14 | 350 a.u. |
| 2'F-ANA at 1 6 7 8 9 10 11 13 | 54.5 a.u. |
| 2'F-ANA at 1 3 4 5 8 9 11 13 14 15 | 55.4 a.u. |
| 2'F-ANA at 4 5 8 10 11 14 15 | 46.8 a.u. |
| 2'F-ANA at 2 4 9 | 337 a.u. |
| 2'F-ANA at 3 4 5 6 7 | 94.1 a.u. |
| 2'F-ANA at 2 7 9 11 14 15 | 139 a.u. |
| 2'F-ANA at 1 3 5 6 7 11 12 14 | 47.9 a.u. |
| 2'F-ANA at 1 2 3 5 7 8 9 11 14 | 47.3 a.u. |
| 2'F-ANA at 1 3 4 5 6 7 14 | 54.4 a.u. |

Further values, each from its own experiment
| Substance | target | assay | system | setting | how to read | measurement | value |
| --- | --- | --- | --- | --- | --- | --- | --- |
| PhoQ, residues 284 288 289 292 302 303 TNSAEL | PhoP, residues 12 14 15 18 19 HEGLL (Escherichia coli, UniProt P23836) | Sort-seq, item: YFP reporter | E. coli | PhoQ-PhoP variant library, with: 10 µM Mg2+ | reference: high Mg2+ state, higher = stronger signaling | fold induction | 1 |

For quick reference, copied from above (study 4):
| Variant | ABA EC50 |
| --- | --- |
| L94A | 286 µM |
| E131F | 5.14 µM |
| M68I | 2.97 µM |
| V44L | 2.8 µM |
| E174P | 69.3 µM |
| D153N | 63.3 µM |
| L8V | 9.93 µM |
| Q31T | 23.9 µM |
| D75K | 1.84 µM |
| I12R | 57.7 µM |
| E151Y | 5.67 µM |
